Results from different studies.
Numbered parts are unrelated; each lists some results of a single study. Changes are numbered by the printed parent chain.

Sample 1 — technique: DHFR PCA, dose-response; medium: yeast; notes: Hill fit, mean, not affinity; together with: (+)-ABA, dose series; reading: lower = more sensitive; measurement: ABA EC50
Target: ABI1, truncated, D143A, DHFR fusion (Arabidopsis thaliana, UniProt P49597)
Starting sequence: PYL1, truncated, DHFR fusion (Arabidopsis thaliana, UniProt Q8VZS8); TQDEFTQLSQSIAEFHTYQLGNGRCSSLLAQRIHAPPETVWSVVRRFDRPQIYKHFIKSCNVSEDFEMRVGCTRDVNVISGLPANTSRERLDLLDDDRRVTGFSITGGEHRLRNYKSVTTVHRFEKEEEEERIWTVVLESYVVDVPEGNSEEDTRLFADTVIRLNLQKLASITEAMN
V118W: 519 µM
E109I: 7.52 µM
P146Q: 290 µM
V145W: 528 µM
T120N: 636 µM
S27T: 76.4 µM
H122F: 625 µM
D75T: 0.416 µM
G107R: 94 µM
D92H: 104 µM
E109A: 7.93 µM
R163I: 38.4 µM
E14Y: 28.4 µM
R132T: 1.02 µM
I12P: 244 µM
Y18E: 20.6 µM
L156M: 1.63 µM
F66N: 8.31 µM
S171D: 1.7 µM
R69A: 1.94 µM
A30R: 3.76 µM
R163H: 15.9 µM
T17I: 21.5 µM

Sample 2 — technique: protein-binding microarray; form: double-stranded DNA, one strand shown; medium: in vitro; tested at: not given; reading: higher = stronger binding; measurement: E-score
Target: Cyclic AMP-responsive element-binding protein 1 (CREB1, Homo sapiens, UniProt P16220, residues 1-327, full length assumed)
UniProt P16220, sequence (whole entry, looked up): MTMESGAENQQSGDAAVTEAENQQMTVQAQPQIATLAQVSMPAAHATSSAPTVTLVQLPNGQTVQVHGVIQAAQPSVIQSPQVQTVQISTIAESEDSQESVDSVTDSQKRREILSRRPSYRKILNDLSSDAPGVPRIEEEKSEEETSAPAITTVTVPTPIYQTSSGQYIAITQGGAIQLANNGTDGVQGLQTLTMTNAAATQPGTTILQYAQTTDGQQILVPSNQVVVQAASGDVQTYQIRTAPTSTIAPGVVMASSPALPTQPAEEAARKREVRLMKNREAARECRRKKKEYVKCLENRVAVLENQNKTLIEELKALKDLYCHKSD
Notes: k-mer, scored over probes, only values ≥0.25
GTTATAA: 0.265
CGATGAC: 0.32
AATGATA: 0.293
AAATATG: 0.262
AACGTTA: 0.295
CACGTAA: 0.4
TACATCA: 0.258
GTGATGA: 0.298
ACGTAGA: 0.331
GTGAAAA: 0.255
CTGTGAC: 0.306
ACTATTA: 0.261
AAACATA: 0.276
AATTACG: 0.334
ACGTGTA: 0.27
ACGTGAT: 0.28
ATATGTG: 0.267
CGTAACA: 0.327
GATGTGA: 0.27
AATGATG: 0.268

Sample 3 — technique: protein-binding microarray; form: hairpin DNA; medium: in vitro; tested at: not given; baseline: not given; reading: higher = stronger binding; measurement: median fluorescence
Target: Runt-related transcription factor 1, full length (RUNX1, Homo sapiens, UniProt Q01196-8, residues 1-480)
Notes: whole hairpin DNA, median over replicate spots
GAGGCCTGTTGCGGCTGGCCTCCTGGCCAGCCGCAACAGGCCTCACACTC: 2210 a.u.
CTCAGTTCTGCGGGCTGGACTCCTGTCCAGCCCGCAGAACTGAGACACTC (5mC at 11): 2000 a.u.
GAGGCCTGTTGCGGTTGGCCTCCTGGCCAACCGCAACAGGCCTCACACTC (5mC at 12 32): 1840 a.u.
GAGGCCTGACGCGGTTGGCCTCCTGGCCAACCGCGTCAGGCCTCACACTC: 2210 a.u.
CTCAGTTCTGTGGGCTGGACTCCTGTCCAGCCCACAGAACTGAGACACTC (5mC at 31): 1760 a.u.
CAGGCCTGTCGCGGTTGGCCTCCTGGCCAACCGCGACAGGCCTGACACTC (5mC at 1): 2590 a.u.
CTCAGTTCTGTGGGGTGGACTCCTGTCCACCCCACAGAACTGAGACACTC: 1950 a.u.
CTCAGGTCTGTGGGCTGGACTCCTGTCCAGCCCACAGACCTGAGACACTC (5mC at 39): 1970 a.u.
GAGGCGTGTCGCGGTTGGCCTCCTGGCCAACCGCGACACGCCTCACACTC (5mC at 39): 3070 a.u.
GAGGCCTGTCGCGGTTGGCCTCCTGGCCAACCGCGACAGGCCTCACACTC (5mC at 10 34): 5200 a.u.
CTCAGTCGTGTGGGCTGGACTCCTGTCCAGCCCACACGACTGAGACACTC: 1860 a.u.
GAGGCCTGTTGCGTTTGGCCTCCTGGCCAAACGCAACAGGCCTCACACTC: 1700 a.u.
CTCAGTTCTGTAGGCTGGACTCCTGTCCAGCCTACAGAACTGAGACACTC: 1640 a.u.
GAGGCCCAACCGCCGCAGCCTCCTGGCTGCGGCGGTTGGGCCTCACACTC: 2930 a.u.
GAGGCCTGTCGCGGCTGGCCTCCTGGCCAGCCGCGACAGGCCTCACACTC: 1980 a.u.
GAGGCCTGTTCGGGTTGGCCTCCTGGCCAACCCGAACAGGCCTCACACTC (5mC at 11): 1800 a.u.
GAGGCCCGTTGCGGTTGGCCTCCTGGCCAACCGCAACGGGCCTCACACTC (5mC at 7): 6090 a.u.
GAGGCCTGTTGTGTTTGGCCTCCTGGCCAAACACAACAGGCCTCACACTC: 1620 a.u.
GAGGCCTCGTGTGGTTGGCCTCCTGGCCAACCACACGAGGCCTCACACTC (5mC at 8): 2130 a.u.

Sample 4 — target: UBE2J2 UBC core domain (UniProt Q8N2K1); technique: yeast two-hybrid; medium: yeast; notes: mostly zero background; baseline: not given; reading: higher = stronger interaction; measurement: lacZ reporter activity
B1: TRIM35 RING domain (UniProt Q9UPQ4); chain PSRSFKEELLCAVCYDPFRDAVTLRCGHNFCRGCVSRCWEVQVSPTCPVCKDRASPADLRT
B2: RNF43 RING domain (UniProt Q68DV7); chain SGSSCSSAPVCAICLEEFSEGQELRVISCLHEFHRNCVDPWLHQHRTCPLCMFNITEGDSFS
B3: TRIM10 RING domain (UniProt Q9UDY6); chain SVTSLADEVNCPICQGTLREPVTIDCGHNFCRACLTRYCEIPGPDLEESPTCPLCKEPFRPGSFRP
B4: RNF14 RING domain (UniProt Q9UBS8); chain IKCFNSKLFLCSICFCEKLGSECMYFLECRHVYCKACLKDYFEIQIRDGQVQCLNCPEPKCPSVATPGQVK
B5: RNF112 RING domain (UniProt Q9ULX5); chain QPMAPRELPTCSICLERLRDPISLDCGHDFCIRCFSTHRLPGCEPPCCPECRKICKQKRGLR
B6: RNF4 RING domain (UniProt P78317); chain TGLRPSGTVSCPICMDGYSEIVQNGRLIVSTECGHVFCSQCLRDSLKNANTCPTCRKKINHKRYHP
B7: TRIM15 RING domain (UniProt Q9C019); chain SLKVVHELPACTLCAGPLEDAVTIPCGHTFCRLCLPALSQMGAQSSGKILLCPLCQEEEQAETPMA
B8: UBE4A RING domain (UniProt Q14139); chain LQQQEEETYADACDEFLDPIMSTLMCDPVVLPSSRVTVDRSTIARHLLSDQTDPFNRSPLTMDQIRPNTELKEKIQRWLAERKQQKEQLE
B9: RNF5 RING domain (UniProt Q99942); chain ERGGAGATFECNICLETAREAVVSVCGHLYCWPCLHQWLETRPERQECPVCKAGISREKVVP
B10: MSL2 RING domain (UniProt Q9HCI7); chain LLPYFRQSLSCCVCGHLLQDPIAPTNSTCQHYVCKTCKGKKMMMKPSCSWCKDYEQFEENKQ
B11: TRIM3 RING domain (UniProt O75382); chain VQPMDKQFLVCSICLDRYQCPKVLPCLHTFCERCLQNYIPAQSLTLSCPVCRQTSILPEQGV
Target sequence (chain): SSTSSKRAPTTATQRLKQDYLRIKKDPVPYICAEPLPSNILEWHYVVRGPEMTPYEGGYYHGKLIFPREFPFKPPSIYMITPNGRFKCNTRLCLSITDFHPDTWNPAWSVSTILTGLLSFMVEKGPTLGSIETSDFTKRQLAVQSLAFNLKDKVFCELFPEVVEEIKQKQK
B1 (TRIM35 RING domain): 0
B2 (RNF43 RING domain): 0
B3 (TRIM10 RING domain): 0
MANWVFCNRCFQPPHRTSCFSLTNCGHVYCDACLGKGKKNECLICKAPCRTVLLSK (RNF212 RING domain (UniProt Q495C1)): 0
B4 (RNF14 RING domain): 0
KIKDLNEHIVCCLCAGYFVDATTITECLHTFCKSCIVKYLQTSKYCPMCNIKIHETQPLL (PCGF1 RING domain (UniProt Q9BSM1)): 0
B5 (RNF112 RING domain): 0
B6 (RNF4 RING domain): 0
B7 (TRIM15 RING domain): 0
B8 (UBE4A RING domain): 0
B9 (RNF5 RING domain): 0
B10 (MSL2 RING domain): 0
B11 (TRIM3 RING domain): 0
QLQDEEDDSLCRICMDAVIDCVLLECGHMVTCTKCGKRMSECPICRQYVVRAVHVF (RNF34 RING domain (UniProt Q969K3)): 0
KRQCSDVDDICSICQAEFQKPILLICQHIFCEECMTLWFNREKTCPLCRTVISDHINKW (RNFT1 RING domain (UniProt Q5M7Z0)): 8880

A few entries again (sample 1):
D75T: 0.416 µM
G107R: 94 µM
D92H: 104 µM
E109A: 7.93 µM
R163I: 38.4 µM
E14Y: 28.4 µM
